# Results pooled from the literature.
# Parts stem from different laboratories: compare values within a part only. Substitutions count along the parent as printed.

# Series 1
# Target: CCNB3, cyclin fold, Cln2 fusion (human)
# Method: yeast growth competition, sequencing
# Sample: yeast
# Notes: weak parent motif
# Baseline: not given
# Direction: higher = stronger binding
# Starting sequence: SLBP docking peptide (human); ARYKRKLLINDFG; partner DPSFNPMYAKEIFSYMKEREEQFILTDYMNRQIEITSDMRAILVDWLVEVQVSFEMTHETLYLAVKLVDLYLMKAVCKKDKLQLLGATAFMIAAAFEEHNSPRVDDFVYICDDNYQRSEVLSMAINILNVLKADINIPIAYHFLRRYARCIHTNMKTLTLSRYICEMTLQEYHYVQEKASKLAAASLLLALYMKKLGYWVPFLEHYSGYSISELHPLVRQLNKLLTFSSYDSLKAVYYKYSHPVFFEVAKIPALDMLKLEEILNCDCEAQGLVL
Substitution,normalised enrichment score
Y3D,0.424
D11L,0.243
Y3F,0.195
R2M,-0.0603
R5K,0.309
I9E,0.25
Y3C,0.0512
L7P,0.213
I9S,0.704
I9F,0.277
G13K,0.355
Y3R,0.125
R5W,-0.356
R5P,0.521
N10Y,0.219
F12H,-0.136
K4A,-0.122
N10M,0.0671
F12M,-0.274
K6W,0.233
F12E,-0.0449
A1Y,-0.0887
L8W,0.52
A1I,0.0975
F12Q,0.103

# Series 2
# Target: RNA binding protein fox-1 homolog 2, RRM domain, GST-SBP tag (RBFOX2, Homo sapiens, UniProt O43251-10, residues 100-194)
# Method: RNA Bind-n-Seq
# Form: RNA
# Sample: in vitro
# Tested at: 365 nM
# Notes: natural RNA segment, single round, ends assumed
# Baseline: no-protein control
# Direction: higher = stronger binding
# Construct (chain): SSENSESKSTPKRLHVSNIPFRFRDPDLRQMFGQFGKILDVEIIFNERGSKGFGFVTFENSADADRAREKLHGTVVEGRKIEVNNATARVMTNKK
Oligonucleotide,RBNS enrichment (R)
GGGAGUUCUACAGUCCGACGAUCUUUCCUGAUCGAGAAACACGUGCUAAGAUUUCUAUGAAUUCUGCUUCUUUAUAGUUAAGUCUCUGUUUUCCAUGUUCUGUCAUUUAUAUAGGUCAAGGACAAGUGCCUUCUGGAAUUCUCGGGUGCCAA,0.844
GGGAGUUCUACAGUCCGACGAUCGGUCAAGCGGGGCUAUGCCCGUCUGGCCCAAAACACAGUCCGUUAUUAACGAGAUGGCCCUGGCAGGCGGGAACAAAUCUGCCUCCAUGCACUGCUUCCUGUAGUCUUUUUGGAAUUCUCGGGUGCCAA,0.264
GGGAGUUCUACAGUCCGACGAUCGCUCUGACCGUUCCCACCACCAUCUGCAUGUCCCCACUGGGCCUGAGUCUAGCCUGGGAGCCAGGAUACUGGGGUCCUUUUCCCACUCUUCCACUGACUUGCUGUGUGACUGGAAUUCUCGGGUGCCAA,11.2
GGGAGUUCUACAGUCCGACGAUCGAUUUUUUUUUUAUAGUUUAAAUAAAGUCAGCUGAAUCUACAUGUCUCUUGUUUUAUUUCUCUCUAAACUUGAAAACAGUAAAUCUGCAGAUACUGUGAGGCACAGAUUAUGGAAUUCUCGGGUGCCAA,0.511
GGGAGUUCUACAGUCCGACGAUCGAGGGUCAAAUAUUUAGUGCAUUUUAUAGAAGUGUAAAUUAUUUAAAUCUUAUGUGGAUUCUUUUAUUUUUUCCUUAAACUUCUUAGUGUUUCUGAAACUUCUAAAAAAGUGGAAUUCUCGGGUGCCAA,0.77
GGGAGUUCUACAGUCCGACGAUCCUGUUUGCUAAACCACAACUCUUUUUGGCUACUUGGGUCAUAGAGACAGCAGAGUUGCUCCAAGUAUAAAUGUGACUUAGGCUCCCUCCAGCACACAGUGUGUAUGUUGGUGGAAUUCUCGGGUGCCAA,0.609
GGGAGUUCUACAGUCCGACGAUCCAGUUAGGGGAGGCCCUACUGCCUUCUCAAAGCAGAGAGGCAGCUUAUCAAACUCAGCCCAAAACUCUGUUUACAUGGGUGGGGAGAUGGAGCAGGGAAGUACAGAGUGGUGGAAUUCUCGGGUGCCAA,0.392
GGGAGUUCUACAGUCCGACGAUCUUUGUCUUCCGGCUGCUCAGGGCUCUCACGCCCAGACCCUGCUUUAGAGUCCUGGAGUGACCACAGCCCCUGCCCCCUGUCCCUGAGAGGUACAAGAGCCUGUUUACCUCUGGAAUUCUCGGGUGCCAA,0.328
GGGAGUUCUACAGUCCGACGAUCAAGUAGAAAAGAAUUGUUUACUAUUUGACCCACAUAUUAAACAUGCUUUUUUUCUCUAUUAUGGCAAAUAUUGAAUAUUCAUGAACAUAACUUGCUAAACAAGUAUUCCAUGGAAUUCUCGGGUGCCAA,0.625
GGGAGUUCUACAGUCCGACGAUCAACCCUUCCAGUCCCAGUGCUGCCAAGCGGCGCCGCACGUAACCCUCAGCCCUGGUGGCGGCAGAGAAGCGGGCGAGGCACUGUGGUCGCUGAGGGGGUUGGCUGGGUCUUGGAAUUCUCGGGUGCCAA,0.319
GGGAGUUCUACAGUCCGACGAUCGCGGGUUGGUGUGUUUUCCCCUUGUGUACCAGAGCACAUUCCUUAGGGGACGGCUUUGGGGGUCCCACGAGACAUGGACUAGGAGUUUAAGCAGGACAGUGUGCGUGCACUGGAAUUCUCGGGUGCCAA,0.649
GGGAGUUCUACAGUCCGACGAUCUCUUUUUAAACAAAAAUUAUUUUGCCUACAGAAAGGUUGUAGUUUUGAGCACAUGUUAAUUUUUUUCCCUCUUUCCCCACUUUUAUUUUUUUAAAUAAGGGAUAACAUAUUGGAAUUCUCGGGUGCCAA,0.682

# Series 3
# Target: RING finger protein unkempt homolog, zinc fingers 1-6, GST-SBP tag (UNK, Homo sapiens, UniProt Q9C0B0, residues 30-357)
# Method: RNA Bind-n-Seq
# Form: RNA
# Sample: in vitro
# Tested at: not given
# Notes: RNA with constant flanks, ends assumed
# Baseline: input RNA pool
# Direction: higher = stronger binding
# Residues (chain): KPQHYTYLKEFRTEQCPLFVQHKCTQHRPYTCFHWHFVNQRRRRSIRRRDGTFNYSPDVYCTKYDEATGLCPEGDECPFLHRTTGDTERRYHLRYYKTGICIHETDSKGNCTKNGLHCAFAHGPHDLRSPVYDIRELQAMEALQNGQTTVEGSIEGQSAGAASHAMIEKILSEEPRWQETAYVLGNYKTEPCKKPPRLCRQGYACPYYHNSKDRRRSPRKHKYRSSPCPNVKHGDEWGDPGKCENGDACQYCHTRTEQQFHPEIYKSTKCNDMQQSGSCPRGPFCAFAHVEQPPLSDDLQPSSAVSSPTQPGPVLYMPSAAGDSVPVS
Oligonucleotide,bound/input enrichment
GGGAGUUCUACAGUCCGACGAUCGGCCUUCGAGGAAGAGGCCCACCUCCUUCAUGGGCCUCUGAGCCUGAACGCCCAUCCAUUCUCCGUGCAUCAGAACUGAAGGAGCUUGAUAAAUUUGAUAACCUAGAUGCUGAAGCUGAUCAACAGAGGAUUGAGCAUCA,0.177 ratio
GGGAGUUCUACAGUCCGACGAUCUUCCCAAAUCGUUUUUCCAAUCGCCCAAUAACUGGACCUCACAUCGCAUACACAGAGGCUGUCCGCGACACUCAGAUCAUGCUGAAAUGGACGUAUGUUCCAUCAAGUAACAAUAAUACUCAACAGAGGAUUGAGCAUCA,0.392 ratio
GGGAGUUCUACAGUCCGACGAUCACCCUGCGGAGAAAGGGCAAUAUCAUUCUAAUCCCUGAAAGAAGCAACAGCCCCGAAAACACCCGAAAUAUCUUCUACAAAGGAACCUCCCCCACACGGGCUUAUAAGGAUUGAGUGAUGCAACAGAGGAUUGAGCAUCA,0.713 ratio
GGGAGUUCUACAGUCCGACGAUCAGAAGGAACACCUUCCAAAUUUUGCUUCAAGCUCUGAAAAAAGGAGCACACAGGGGAACCUCCGUCUUGCUUGUGGAUCGAAGCAAAUACUAUCACAGCGAGGAACUGGGACUUUGUGUGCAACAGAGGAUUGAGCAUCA,0.0543 ratio
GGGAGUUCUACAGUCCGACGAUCCGGGAACUCAAACAUCUGAAUCAUCUUGAUAUCUCAGAUGAUAAACAGUUUACAUCAGACACCGCUCUUCGCUUACUAGAACAAAAAGACAUCCUACCUAACCUUGUUUCUCUGGAUGUUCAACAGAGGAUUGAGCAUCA,0.289 ratio
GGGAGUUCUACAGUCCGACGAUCACAGGGAAUGGGCGGCGGCUCCACCUGGGGAUUCCUGAGGCCGUGUUUGUGGAAGAUGCCGAUUCCUUCAUGAAACAGCCUGGGAAUGAGACUGCAGAUACAGUAUUAAAGAAGCUGGAUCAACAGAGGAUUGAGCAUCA,0.128 ratio
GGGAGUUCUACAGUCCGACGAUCUGAAGAUUCCAGAUGCUAAACAUGUAUUUACCACAUUUUAUGCUAAAACAAAAUCACUGUCCGUUAAUCCAGUGCUCUUUCCAAACCGUGAAGACUAUAUCCAUCUAAUGGGUUAUGACACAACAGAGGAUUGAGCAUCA,0.152 ratio
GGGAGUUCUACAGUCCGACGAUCCAAAAGAAGAACAAGAUCCAUACUUUGGAGGACUUCCAGCGGGUUAUCAAUGUGAAUCUUACCGGCACUUUCAAUGUGAUCCGCCUGGUUGCUGGGGAGAUGGGCCAGAAUGAACCAGACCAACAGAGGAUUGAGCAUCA,0.193 ratio
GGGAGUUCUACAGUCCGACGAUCCUCAGAGACGUGGCAUAUCAAUAUGUGAAAAAGGGGUCUCGAAUUUAUUUGGAAGGGAAAACCGACUAUGGUGAAUACAUGGAUAAAAAUAAUGUGAGGCGACAAGCAACAACAAUCAUACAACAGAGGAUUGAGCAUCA,0.253 ratio
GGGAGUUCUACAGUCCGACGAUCUUAAUCUCAACUAAAGAUAUAGUUCUGUGGUAGCCAUUGUUUUACAAUGAAAUAACUGCAACCCGAGAAAAAAAACUGUAUAAAAACAUUAAAUUGUCAGUAUUUUUGUAAGAUUCCGUUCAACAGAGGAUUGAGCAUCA,0.2 ratio
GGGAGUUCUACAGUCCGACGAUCUAUUUAUGUCAAUAUUGUGAAUAUUCAACAGGACAAAUUGAAGAUCUUAAAAUUCAUCCCGAUUUCAAGCAUUCAGCUGACUUGCCUCAUAAAUGUAGUGACUGCUUGAUGAGGUUUGGACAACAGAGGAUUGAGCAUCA,0.289 ratio

# Series 4
# Target: ABI1, truncated, D143A, DHFR fusion (Arabidopsis thaliana)
# Method: DHFR PCA, deep sequencing
# Sample: yeast
# Notes: methotrexate growth selection, single substitutions
# With: (+)-ABA 0.032 µM
# Baseline: wild-type fitted maximum
# Direction: higher = stronger binding
# Starting sequence: PYL1, truncated, DHFR fusion (Arabidopsis thaliana); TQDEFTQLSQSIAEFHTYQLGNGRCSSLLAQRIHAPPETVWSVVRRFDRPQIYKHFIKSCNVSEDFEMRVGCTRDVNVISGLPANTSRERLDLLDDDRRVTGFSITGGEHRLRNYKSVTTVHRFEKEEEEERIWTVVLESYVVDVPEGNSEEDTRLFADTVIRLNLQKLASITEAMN
Substitution,relative binding score
E89I,1.28%
F15D,-2.81%
I105P,-8.22%
F157G,-3.9%
R49G,1.52%
R45I,-8.25%
W134V,12.2%
I133Y,8.6%
G81V,-0.205%
E67N,15%

# Series 5
# Target: Histone acetyltransferase KAT6A, winged helix 2, GST fusion (KAT6A, Homo sapiens, UniProt Q92794, residues 85-181)
# Method: protein binding microarray
# Form: double-stranded DNA, one strand shown
# Sample: in vitro
# Tested at: not given
# Notes: 8-mer, flanks averaged, mean of 2 arrays, mostly near background
# Baseline: not given
# Direction: higher = stronger binding
# Construct (chain): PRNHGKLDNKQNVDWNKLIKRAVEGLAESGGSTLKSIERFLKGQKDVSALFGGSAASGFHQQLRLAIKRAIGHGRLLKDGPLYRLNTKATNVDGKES
Oligonucleotide,E-score
ACCGTTCA,-0.191
TACGCTCA,-0.0204
GACACACA,0.0699
ACGGACTC,-0.0907
CTCGATAC,-0.0838
CCCAAATA,-0.0549
GCCTGACC,0.0677
ACAAACGG,0.109
GCGAATTA,0.108
CCACCTTC,-0.0823
ACGGGCAC,0.163
CAGAAGGC,-0.0434
GAGAGGAC,-0.0901
ACAGGCAG,0.0241
AGTCCGCA,0.164
GAAGCGCC,-0.0244
CAAAGACA,0.182
ACCTGCCA,-0.0153
CTCTCAAG,0.121
ATACACTC,-0.0711
TGCGCAAA,0.0964
AATCCCTA,-0.0791
ACCTGGTC,0.0415
GCCACACC,-0.0163
GCCTGGCC,0.154

# Other studies, line by line
Substance,target,assay,test system,conditions,scale,quantity,result
"PhoQ, residues 284 288 289 292 302 303 HSYLQF","PhoP, residues 12 14 15 18 19 TPLRH (Escherichia coli, UniProt P23836)","Sort-seq, refers to: YFP reporter",E. coli,"PhoQ-PhoP variant library, with: 10 µM Mg2+","baseline: high Mg2+ state, higher = stronger signaling",fold induction,0.712
